{"data": "Assay results collected from several papers", "note": "A part holds a random share of what one study measured. Substitutions count along the parent as printed."}
{"data": "Sample 1", "target": "RING finger protein unkempt homolog, zinc fingers 1-6, SBP tag (UNK, Homo sapiens, UniProt Q9C0B0, residues 30-357)", "technique": "RNA Bind-n-Seq", "form": "RNA", "sample": "in vitro", "tested at": "100 nM", "setting": "RNA with constant flanks, vertebrate orthologous sites, ends assumed", "reference": "input RNA pool", "direction": "higher = stronger binding", "chain of UniProt Q9C0B0 (30-357, looked up)": "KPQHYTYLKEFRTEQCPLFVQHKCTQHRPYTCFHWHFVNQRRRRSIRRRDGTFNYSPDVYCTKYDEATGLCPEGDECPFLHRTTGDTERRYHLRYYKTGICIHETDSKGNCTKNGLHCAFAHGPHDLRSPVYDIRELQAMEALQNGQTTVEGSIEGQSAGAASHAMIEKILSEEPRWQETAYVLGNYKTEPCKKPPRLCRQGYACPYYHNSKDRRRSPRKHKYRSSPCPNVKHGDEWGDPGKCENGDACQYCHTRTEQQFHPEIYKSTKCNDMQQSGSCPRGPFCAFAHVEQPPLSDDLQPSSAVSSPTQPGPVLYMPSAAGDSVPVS"}
{"Oligonucleotide": "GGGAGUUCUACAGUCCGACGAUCUUUUAUUGAUCAGGUCUGUAAAUGUGUACUACAAAAAUCAGAGUUUAUUUAUAAACAGAAUAGUUUAUUUAAAGCGAAGGCCUUUCCUCAUCAAUAUCGUGGUAUGCAUUGAUUCCAUUCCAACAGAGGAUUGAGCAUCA", "bound/input enrichment [ratio]": 0.215}
{"Oligonucleotide": "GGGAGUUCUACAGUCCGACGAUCAAUUACACUAAUACUGAAGUUAAAAUUAAAAGGAUAUCCAAGGUGAUGAUAAAGUGUGUGUUGGUAGUUACUAAAAGAACCUUAGCUGUUAUUGCCUUGUAUUUCUAUCCCUUGUUUCAGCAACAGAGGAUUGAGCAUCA", "bound/input enrichment [ratio]": 0.387}
{"Oligonucleotide": "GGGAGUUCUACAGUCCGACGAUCAAUUACACUGAUACUGAAGUUAAAAUUAAAAGGAUAUCCAAGGUUAUGAUAAAGCGUGUGUUGGUAGUUACUAAAAGAACCUUAGCUGUUAUUGCCUUGUAUUUCUAUCUCUUGUUUCAGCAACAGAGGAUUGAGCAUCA", "bound/input enrichment [ratio]": 0.384}
{"Oligonucleotide": "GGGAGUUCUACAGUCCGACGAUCAUCACUCAGUGACAGUAUGCCAUCUGUAGCAGAUUCUCACUCUAGUCAUUUUUCUGAAUUUAGUUGUUCUGACCUAGAAAGCAUGAAAACUUCUUGUAGCCAUGGCUCCAAUGAUUAUCACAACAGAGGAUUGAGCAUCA", "bound/input enrichment [ratio]": 2.19}
{"Oligonucleotide": "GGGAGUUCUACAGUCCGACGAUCCAUGUCCUUGUUGCUGUGAUAUUUAAAAUAUCCACAGUACUCACUUUUUCCAAAUGAUUCUAGUAACUGCCUAGAAAUAUUUUUCUCUUACCUGUUAUUUAUCAAUUUUUCCCAGUAUUUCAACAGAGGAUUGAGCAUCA", "bound/input enrichment [ratio]": 1.05}
{"Oligonucleotide": "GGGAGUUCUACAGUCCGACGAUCCCAGUCUUCCACAUAGGGUCAGCCUCAAAUCUAUAGGAUUUUUGACAAAUGUAUUAUAUCUAGUUGUGUUGAAUUUAGUAUUUUUUUAUUAGCCUGUAAAUAAAGAUGGCCUCUCCUACACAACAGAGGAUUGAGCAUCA", "bound/input enrichment [ratio]": 2.41}
{"Oligonucleotide": "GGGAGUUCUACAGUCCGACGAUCAUCUCUCAUUUUGUAUGUCCAAAAAAGGUUUUGAAUUUUUGAAUAAUUGCUGGUUUUAGUUAGCUCUGCCCUCAUGAAGUAUUACUAUAAUUCACCACAAACAGAUAUCUGUCUGAAUUACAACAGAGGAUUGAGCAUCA", "bound/input enrichment [ratio]": 0.582}
{"Oligonucleotide": "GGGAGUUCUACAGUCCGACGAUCCCUACAAUAAUGAAAACUUACAGGAAUUUUUUUAUUUUUCAUUUUCCCCUUAGGCAUACUUAGUCUUUUUUUCCCCCCAGGCAGAUCAUUCUGAGUGUGCGAGUGUGUGCACAUGUUAUACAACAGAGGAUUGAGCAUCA", "bound/input enrichment [ratio]": 1.56}
{"Oligonucleotide": "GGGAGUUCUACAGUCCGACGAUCUUGUUUUGUACAGGGCAUUCUCUGUACAAAUUUGUUGUGGUUAUAAAACAAUUAGCAAAACAGCUUACAUUUGUAUUUAUUUUCUAUUCCAUACCUCUACCCCAUGUUUUUUCUCCUCAACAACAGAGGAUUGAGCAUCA", "bound/input enrichment [ratio]": 0.693}
{"Oligonucleotide": "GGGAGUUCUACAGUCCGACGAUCGUUGAACAUAAAUGUUUCCACUGGGUUUUGCUUAUAAGAAGAAAUGGACCCAUGCACUUAUAUAGCUUUUUAAUAGCGUUAACCAAUGCAUUUUAGACAUAUUUUGAUGUAUAUAUCUAUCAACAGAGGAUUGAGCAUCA", "bound/input enrichment [ratio]": 1.28}
{"Oligonucleotide": "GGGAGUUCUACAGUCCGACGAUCGUCGUCUGAUUGGAUAAAGACUGUCCCAAGUUACAACCAAACAAAUAGUUCCAUGGACUUUAGAAAUUAUAUGAUGAGAGACGAGAAUCUGGAACCGCUCCCCAAAAACUGGGAAAUGGCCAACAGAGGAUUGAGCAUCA", "bound/input enrichment [ratio]": 1.11}
{"data": "Sample 2", "target": "Sal-like protein 4, full length isoform B (SALL4, Homo sapiens, UniProt Q9UJQ4-2, residues 1-616)", "technique": "universal PBM", "form": "double-stranded DNA, one strand shown", "sample": "in vitro", "tested at": "not given", "setting": "8-mer, flanks averaged, mean of replicates", "direction": "higher = stronger binding"}
{"Oligonucleotide": "ACAGCCCA", "E-score": -0.132}
{"Oligonucleotide": "CATCGAAC", "E-score": -0.00536}
{"Oligonucleotide": "CGGCTATC", "E-score": -0.176}
{"Oligonucleotide": "CCTAAGCA", "E-score": -0.0574}
{"Oligonucleotide": "ACTCGCTA", "E-score": -0.123}
{"Oligonucleotide": "ACAGAACG", "E-score": -0.0401}
{"Oligonucleotide": "GACAGGGC", "E-score": -0.333}
{"Oligonucleotide": "AAGGAGGC", "E-score": -0.293}
{"Oligonucleotide": "ATAAGCAA", "E-score": 0.256}
{"Oligonucleotide": "CACGTACC", "E-score": -0.0119}
{"Oligonucleotide": "CTGGCTTA", "E-score": -0.167}
{"Oligonucleotide": "ACTCGTAC", "E-score": -0.0487}
{"Oligonucleotide": "GTACATGA", "E-score": 0.205}
{"Oligonucleotide": "GGCCGACA", "E-score": -0.246}
{"Oligonucleotide": "ATGTAAGG", "E-score": 0.239}
{"Oligonucleotide": "GTTGAATA", "E-score": 0.286}
{"Oligonucleotide": "TAACTACA", "E-score": 0.175}
{"Oligonucleotide": "CACTGCAC", "E-score": -0.121}
{"Oligonucleotide": "AAGTCAGA", "E-score": -0.119}
{"data": "Sample 3", "target": "CCND3, cyclin fold, Cln2 fusion (human)", "technique": "yeast growth competition, sequencing", "sample": "yeast", "setting": "strong parent motif", "reference": "not given", "direction": "higher = stronger binding", "starting sequence": "INSM1 docking peptide (human); PKAIRKLHFEDEV"}
{"Change": "E12F", "normalised enrichment score": 0.576}
{"Change": "I4P", "normalised enrichment score": 0.295}
{"Change": "E12D", "normalised enrichment score": 1.14}
{"Change": "E10A", "normalised enrichment score": 0.477}
{"Change": "E10Q", "normalised enrichment score": 0.886}
{"Change": "R5L", "normalised enrichment score": 0.69}
{"Change": "F9H", "normalised enrichment score": 0.551}
{"Change": "L7H", "normalised enrichment score": -0.078}
{"Change": "F9D", "normalised enrichment score": -0.0724}
{"Change": "R5H", "normalised enrichment score": -0.0602}
{"Change": "E12M", "normalised enrichment score": 1.06}
{"Change": "L7D", "normalised enrichment score": -0.0192}
{"Change": "A3V", "normalised enrichment score": 0.615}
{"Change": "D11I", "normalised enrichment score": 0.504}
{"Change": "D11N", "normalised enrichment score": 0.657}
{"Change": "I4W", "normalised enrichment score": 0.361}
{"Change": "E12I", "normalised enrichment score": 0.88}
{"Change": "K2D", "normalised enrichment score": 0.3}
{"Change": "I4S", "normalised enrichment score": 0.888}
{"Change": "E10N", "normalised enrichment score": 0.552}
{"Change": "F9L", "normalised enrichment score": 0.18}
{"Change": "I4Y", "normalised enrichment score": 0.00855}
{"data": "Sample 4", "target": "RNA binding protein fox-1 homolog 2, RRM domain, GST-SBP tag (RBFOX2, Homo sapiens, UniProt O43251-10, residues 100-194)", "technique": "RNA Bind-n-Seq", "form": "RNA", "sample": "in vitro", "tested at": "365 nM", "setting": "natural RNA segment, single round, ends assumed", "reference": "no-protein control", "direction": "higher = stronger binding", "Target sequence (chain)": "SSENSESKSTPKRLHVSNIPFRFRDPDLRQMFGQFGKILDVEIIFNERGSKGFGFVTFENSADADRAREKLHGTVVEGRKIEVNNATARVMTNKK"}
{"Oligonucleotide": "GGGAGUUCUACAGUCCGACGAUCUUUCAGAUCCACUUAAAAUAUUUAGAAAAACGAGUUUUAUUCCUUAUGGGUCUUAUAGGGGAUAAAAUGCUCUUCUUCCAUGCGACACUUCCUUUCCCAUGAACACUUGCUGGAAUUCUCGGGUGCCAA", "RBNS enrichment (R)": 0.418}
{"Oligonucleotide": "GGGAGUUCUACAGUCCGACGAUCUAAAACUGGUGGGUAGCUGGGCUGUCCGUUACCACCACAGCUACAUCUUCUGUUUCUUUGAAUAGAAAGCACCACAGUGUUUUGCACUUGCCUCCAGUAAAGUGCCCUGGUGGAAUUCUCGGGUGCCAA", "RBNS enrichment (R)": 0.318}
{"Oligonucleotide": "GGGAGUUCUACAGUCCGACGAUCAUUUCAGGGAUCCUUAAUAUUUUGAUUUGUUUUCCGAGAUUGGAUUUUAUUUUAUCUGCUAUUUCAGUUCAUCUAAAUCUUGUGUUCUGUACAUGUGAUGUUUGACUGUAUGGAAUUCUCGGGUGCCAA", "RBNS enrichment (R)": 0.53}
{"Oligonucleotide": "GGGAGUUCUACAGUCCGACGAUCUUUCUGUUGUCCUCUGCCUAUGUGGAGUUGACAGGGUUUGGCCUGCAGAUGUGUCUGGACUUGAGCCCAGUGCUUUGGGGCCUUGAGACUCCAGCGACUGCACACCCGCUUGGAAUUCUCGGGUGCCAA", "RBNS enrichment (R)": 0.427}
{"Oligonucleotide": "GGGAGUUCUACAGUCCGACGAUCCACACGGACUCCCGGGCCACGCCCCAGCCCGACAAUGUCGAGUAUAUUAUUAUUAAUAUUAUUAUGAAUUUUUGUAAGAAACCGAGGCGAUGCCACGCUUUGCUGCUACCUGGAAUUCUCGGGUGCCAA", "RBNS enrichment (R)": 0.456}
{"Oligonucleotide": "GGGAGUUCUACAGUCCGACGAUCUUGUUUUUUAAUGUUUCAUGACUCCCACUUUGAUUUUACAUGUUUUCUUGUAAAUAAGCCUGCCUUCCUACCUGGAAUUUGUGUGUGUGUGACUAAUACAUGUUCUACGAUGGAAUUCUCGGGUGCCAA", "RBNS enrichment (R)": 1.06}
{"Oligonucleotide": "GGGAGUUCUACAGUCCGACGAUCGGGAGUGAGGUCAUUCCUGACCCGUGAUGCUUUCAAGGCUUGGUUUUUCUGAUAAUUAUUUUUGCCUGUCAUCCCAAAAACGUAUUGACAUGCGUGUAUAUUACCUGUGAUGGAAUUCUCGGGUGCCAA", "RBNS enrichment (R)": 0.407}
{"Oligonucleotide": "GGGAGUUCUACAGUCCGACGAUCCUCAUGAUAUAAUUUGCUAUAACAAUAUUGUAUUAUGCCUUGAAGUUUUAAGCAUUUAAUAUAAAACAUUAUAACAUUAGUUUGUACUUUUUGCUAAUAGUUUGAGCACAUGGAAUUCUCGGGUGCCAA", "RBNS enrichment (R)": 0.402}
{"Oligonucleotide": "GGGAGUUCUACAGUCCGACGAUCGUAUUAACAAAACCAAAGGACACAAGGGUGCAAGCCCCAUUCACGGCCUGGCAUGCAGCUUGUCCUUGCUCCUGGAACCUGGCAGGCCCUGCCCAGCCAGCCAUCGGAAGUGGAAUUCUCGGGUGCCAA", "RBNS enrichment (R)": 0.436}
{"Oligonucleotide": "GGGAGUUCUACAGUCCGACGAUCGGCCUCCUUGGGAACGUGUAGGCCACGGCUCUGCCACCACUAGGUACCUGCUGAGGGCGCUGGCUCUGCAGAUCAGAACAACGGAGGAUAGCUUUGUGCCUGGACCCAGAUGGAAUUCUCGGGUGCCAA", "RBNS enrichment (R)": 1.08}
{"Oligonucleotide": "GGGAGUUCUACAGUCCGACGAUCGUCAUCUGACCCCUGUCCGUCUCCUUGUCCCUGCUUCAUGUUUGGGGGCCUUUCUUUAACUGCCUUCCUGGCUUAGCUCAGAUGGCAGAUGAGAGUGUAGUCAAGGGCCUUGGAAUUCUCGGGUGCCAA", "RBNS enrichment (R)": 0.254}
{"Oligonucleotide": "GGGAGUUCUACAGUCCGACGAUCAGCUAUAAAAGUGUCUUAGAGAGAAUACUCAUCUAGUAAAUAGUGUGAGUUUCCAAUGUAUUAUCUUAUAUCAAGUAAGAAAUCAAGUAUAUAUCAGCAGAGGCUUACCAUGGAAUUCUCGGGUGCCAA", "RBNS enrichment (R)": 0.328}
{"note": "Excerpt of the above (sample 3):"}
{"Change": "R5L", "normalised enrichment score": 0.69}
{"Change": "L7H", "normalised enrichment score": -0.078}
{"Change": "I4Y", "normalised enrichment score": 0.00855}
{"Change": "K2D", "normalised enrichment score": 0.3}
{"Change": "I4S", "normalised enrichment score": 0.888}
{"Change": "E12I", "normalised enrichment score": 0.88}
{"Change": "E12F", "normalised enrichment score": 0.576}
{"Change": "D11N", "normalised enrichment score": 0.657}
{"Change": "D11I", "normalised enrichment score": 0.504}
{"Change": "I4P", "normalised enrichment score": 0.295}
